Measured values from different studies.
A part holds a random share of what one study measured. Substitutions count along the parent as printed.

Block 1 — technique: DHFR PCA, deep sequencing; medium: yeast; added: (+)-ABA 0.39 µM; reference: wild-type fitted maximum; reading: higher = stronger binding
Target: ABI1, truncated, D143A, DHFR fusion (Arabidopsis thaliana)
Setting: methotrexate growth selection, single substitutions
Starting sequence: PYL1, truncated, DHFR fusion (Arabidopsis thaliana); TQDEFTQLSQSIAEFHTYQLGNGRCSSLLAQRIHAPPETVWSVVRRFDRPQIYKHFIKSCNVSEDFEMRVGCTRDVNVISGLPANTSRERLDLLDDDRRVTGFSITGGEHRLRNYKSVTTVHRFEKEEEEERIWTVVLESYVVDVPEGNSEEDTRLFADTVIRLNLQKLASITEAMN; partner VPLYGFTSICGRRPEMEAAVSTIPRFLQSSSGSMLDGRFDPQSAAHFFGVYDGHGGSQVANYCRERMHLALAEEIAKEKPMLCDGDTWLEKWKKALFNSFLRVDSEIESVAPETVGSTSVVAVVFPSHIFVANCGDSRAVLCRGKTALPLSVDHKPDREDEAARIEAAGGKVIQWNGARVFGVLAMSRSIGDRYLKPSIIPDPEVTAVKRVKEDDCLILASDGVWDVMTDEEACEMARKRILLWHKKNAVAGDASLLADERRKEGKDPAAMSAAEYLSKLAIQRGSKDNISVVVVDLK
`L29W` — result for “relative binding score”: -4.05%.
For `S63E`, “relative binding score” read 39.5%.
`V43D`: “relative binding score” -12.3%.
For `N165E`, “relative binding score” read 0.203%.
`V118Y` — result for “relative binding score”: -3.4%.
`S87H`: “relative binding score” 42.3%.

Block 2 — target: CCND1, cyclin fold, Cln2 fusion (human); technique: yeast growth competition, sequencing; medium: yeast; setting: weak parent motif; reference: not given; reading: higher = stronger binding
Starting sequence: BRCA2 docking peptide (human); PSIKRNLLNEFDR; partner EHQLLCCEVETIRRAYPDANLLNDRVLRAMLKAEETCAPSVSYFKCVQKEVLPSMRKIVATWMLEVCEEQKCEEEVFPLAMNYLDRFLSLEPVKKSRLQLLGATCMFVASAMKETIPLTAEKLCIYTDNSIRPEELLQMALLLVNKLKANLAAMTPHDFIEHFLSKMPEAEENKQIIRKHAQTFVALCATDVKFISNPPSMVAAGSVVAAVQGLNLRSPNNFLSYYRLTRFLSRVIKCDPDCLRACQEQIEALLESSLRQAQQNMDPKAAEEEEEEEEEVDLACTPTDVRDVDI
Under “normalised enrichment score”, `PSIKRNFLNEFDR [L7F]` is recorded as -0.296.
For `PSIKPNLLNEFDR [R5P]`, “normalised enrichment score” read 0.588.
Under “normalised enrichment score”, `PSIKRNLLNTFDR [E10T]` is recorded as -0.722.
For `PSMKRNLLNEFDR [I3M]`, “normalised enrichment score” read -0.361.
`PSIKRNLLNEFDH [R13H]` — result for “normalised enrichment score”: 0.291.
For `PSIKRNLLNEIDR [F11I]`, “normalised enrichment score” read 0.729.
`PSIKRNLLNEFDQ [R13Q]`: “normalised enrichment score” 0.498.
For `PSIKRNLLNEFFR [D12F]`, “normalised enrichment score” read 0.723.
`KSIKRNLLNEFDR [P1K]` — result for “normalised enrichment score”: 1.04.
`PSIKRNLLNESDR [F11S]`: “normalised enrichment score” -0.625.

Block 3 — technique: universal PBM; form: double-stranded DNA, one strand shown; medium: in vitro; concentration: not given; reading: higher = stronger binding
Target: Sal-like protein 4, full length isoform B (SALL4, Homo sapiens, UniProt Q9UJQ4-2, residues 1-616)
Setting: 8-mer, flanks averaged, mean of replicates
The E-score of `AAGGTGTC` is reported as -0.109.
For `AAACGATC`, the E-score was 0.202.
With `CCCCTAAA` the E-score was -0.0171.
With `AATCCCGT` the E-score was -0.097.
The E-score of `AGTTCCGA` is reported as -0.175.
The E-score of `ATAGCAGC` is reported as -0.0858.
The E-score of `GATAAACA` is reported as 0.2.
For `ACCGCTCG`, the E-score was -0.256.
`CCGACTAG` has an E-score of -0.273.

Other studies, line by line
For `PhoQ, residues 284 288 289 292 302 303 SMMNNA`, the fold induction was 4.35 (PhoP, residues 12 14 15 18 19 AWHSL (Escherichia coli, UniProt P23836); Sort-seq, item: YFP reporter; E. coli; PhoQ-PhoP variant library, added: 10 µM Mg2+; reference: high Mg2+ state, higher = stronger signaling).

Repeated from above (block 2):
Under “normalised enrichment score”, `PSIKRNFLNEFDR [L7F]` is recorded as -0.296.
